Results pooled from the literature.
Compare with care: the assays were run in different laboratories.

For `O=C1N[C@H](c2cncc(C#Cc3ccccc3)c2)[C@@H](c2ccccc2Cl)O1`, the unbound fraction was under 0.01 (rat plasma).
`C[C@@H](Oc1cc(-c2cnn(C3CCNCC3)c2)cnc1N)c1c(Cl)ccc(F)c1Cl` — result for “unbound fraction in brain”: 0.0024 (porcine brain polar lipids; 10 µM, pH 7.4, 0.2% DMSO).
The unbound fraction of `CO[C@H]1C[C@@H]2CC[C@@H](C)[C@@](O)(O2)C(=O)C(=O)N2CCCC[C@H]2C(=O)O[C@H]([C@H](C)C[C@@H]2CC[C@@H](OC(=O)NCCOCCOCCOCCOCCOCCOCCOCCOCCC(=O)N3CCc4cc(Cn5nc(-c6ccc7oc(N)nc7c6)c6c(N)ncnc65)ccc4C3)[C@H](OC)C2)C[C@@H](O)[C@H](C)/C=C(\C)[C@@H](O)[C@@H](OC)C(=O)[C@H](C)C[C@H](C)/C=C/C=C/C=C/1C` is reported as 0.001 (ultracentrifugation; mouse plasma; 0.5 µM).
`CCO[C@H]1CCN(Cc2c(OC)cc(C)c3[nH]ccc23)[C@H](c2ccc(C(=O)O)cc2)C1` has an unbound AUC(0-12) of 9460 ng·h/mL (severe hepatic impairment patients; oral, 200 mg, mean).
The unbound Ctrough of `COCCOc1cnc2ccn([C@H](C)c3nnc4c(F)cc(-c5cnn(C)c5)cn34)c(=O)c2c1` is reported as 312 ng/mL (cancer patients, plasma; oral, 200 mg once daily, day 1).
Under “unbound fraction in brain”, `CN1CCN(c2ccc(C(=O)Nc3n[nH]c4ccc(Cc5cc(F)cc(F)c5)cc34)c(NC3CCOCC3)c2)CC1` is recorded as 0.0005 (porcine brain polar lipids; 10 µM, pH 7.4, 0.2% DMSO).
`N#C[C@@]1(c2ccc3c(N)ncnn23)O[C@H](CO)[C@@H](O)[C@H]1O` has an unbound fraction of 0.925 (mouse plasma; 1 to 100 µM, mean over concentrations).
`Cc1cc(C)c(CNC(=O)c2cc(Cl)c3c(c2C)O[C@@](C)([C@H]2CC[C@H](N(C)C)CC2)O3)c(=O)[nH]1` has an unbound fraction of 0.44 (ultracentrifugation; glycoprotein, alpha-1-acid, 0.1%; 10000 ng/mL).
`O=C1CC[C@H](N2Cc3cc(N4CCN(CC5CCN(c6ccc([C@@H]7c8ccc(O)cc8CC[C@@H]7c7ccccc7)cc6)CC5)CC4)ccc3C2=O)C(=O)N1` — result for “unbound fraction in plasma”: 0.046 (rapid equilibrium dialysis; SD rat plasma; 2.5 µM, 6 h).
